Measured values pooled from the literature.
Protocols differ between the studies behind these lines. Several values in a cell are separate wells, animals, samples, runs or records. Numbers after ± are the reported error.
Chain of UniProt O04197 (whole entry, looked up): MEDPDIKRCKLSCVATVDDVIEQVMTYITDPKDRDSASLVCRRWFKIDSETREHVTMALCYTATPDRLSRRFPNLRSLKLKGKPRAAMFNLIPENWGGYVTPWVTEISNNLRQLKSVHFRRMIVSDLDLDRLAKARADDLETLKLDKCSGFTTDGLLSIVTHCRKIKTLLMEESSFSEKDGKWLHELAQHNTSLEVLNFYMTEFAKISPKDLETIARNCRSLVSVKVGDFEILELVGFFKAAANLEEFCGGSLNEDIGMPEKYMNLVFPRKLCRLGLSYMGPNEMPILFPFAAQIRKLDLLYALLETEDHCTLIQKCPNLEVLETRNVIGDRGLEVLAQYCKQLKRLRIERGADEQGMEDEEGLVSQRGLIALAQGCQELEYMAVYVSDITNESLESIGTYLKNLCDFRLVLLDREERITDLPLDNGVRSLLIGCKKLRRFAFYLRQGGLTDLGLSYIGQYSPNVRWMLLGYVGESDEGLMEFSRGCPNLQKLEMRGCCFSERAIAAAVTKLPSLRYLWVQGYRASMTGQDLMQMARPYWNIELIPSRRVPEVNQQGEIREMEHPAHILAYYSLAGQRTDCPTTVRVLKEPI
Chain of UniProt Q9LMA8 (whole entry, looked up): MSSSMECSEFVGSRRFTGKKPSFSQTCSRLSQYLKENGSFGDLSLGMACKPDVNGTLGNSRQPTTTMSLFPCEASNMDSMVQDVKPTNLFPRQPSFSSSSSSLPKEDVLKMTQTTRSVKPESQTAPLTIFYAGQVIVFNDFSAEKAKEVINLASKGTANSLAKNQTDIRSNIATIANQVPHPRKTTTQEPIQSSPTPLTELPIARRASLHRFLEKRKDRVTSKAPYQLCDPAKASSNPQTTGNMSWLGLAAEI

| SMILES | target or system | test | system | setting | how to read | quantity | result |
| --- | --- | --- | --- | --- | --- | --- | --- |
| Cc1ccc(NS(=O)(=O)c2c(C(=O)N3CCCCCC3)c(C)n(C)c2C)c(Cl)c1 | Monkeypox virus | viral infection | replication-deficient | 0.412 µM, 60 h | baseline: untreated | infection | 9.77% and 8.65% and 7.9% |
| COc1ccc(-c2cnnn2-c2cc(OC)c(OC)c(OC)c2)cc1N | MCF-10A | cytotoxicity, nuclei counting |  | 24 h |  | EC50 | 8.85 ± 2.47 nM |
| CC[C@H](C)[C@H](NC(=O)[C@H](Cc1ccccc1)NC(=O)[C@H](CC(=O)O)NC(=O)[C@H](CCCCN)NC(=O)[C@H](C)NC(=O)[C@H](CCCCN)NC(=O)[C@H](CC(N)=O)NC(=O)[C@H](CC(C)C)NC(=O)[C@H](Cc1c[nH]c2ccccc12)NC(=O)[C@H](CCC(=O)O)NC(=O)[C@H](CCCCN)NC(=O)[C@@H](NC(=O)CNC(=O)[C@H](C)N)[C@@H](C)O)C(=O)N[C@@H](CCCCN)C(=O)N[C@@H](CCC(=O)O)C(=O)N[C@@H](CCCCN)C(=O)NCC(=O)N1CCC[C@H]1C(=O)NCC(=O)N[C@@H](CCSC)C(=O)N[C@@H](CC(C)C)C(=O)N[C@@H](CO)C(=O)N[C@@H](C)C(=O)N[C@@H](C)C(=O)N[C@@H](C)C(=O)N[C@@H](CC(N)=O)C(=O)N[C@@H](C)C(=O)N[C@@H](C)C(=O)N[C@@H](CC(C)C)C(=O)N[C@@H](CC(N)=O)C(=O)O | Lucilia cuprina |  |  | thorax injection, 1 h |  | PD50 | > 50 nmol/g |
| CC(C)Oc1ccc(-n2cnc3cc(/C=C\c4ccc(C(C)(C)O)cc4)ccc32)cc1 | Lassa virus |  | HeLa, clade II Nigeria-322 |  |  | EC50 | 50 ± 20 nM |
| [N-]=[N+]=N[C@]1(CO)O[C@@H](n2ccc(N)nc2=O)C(F)(F)[C@@H]1O | Zaire ebolavirus | viral replication | Makona |  |  | EC50 | 600 ± 80 nM |
| CC(C)C[C@H](NC(=O)[C@H](CCCCN)NC(=O)[C@H](Cc1c[nH]c2ccccc12)NC(=O)[C@H](CCCCN)NC(=O)[C@@H]1CSSC[C@@H]2NC(=O)[C@H](CCC(=O)O)NC(=O)[C@H](CC(N)=O)NC(=O)[C@H](CCCCN)NC(=O)CNC(=O)[C@@H]3CCCN3C(=O)[C@H]([C@@H](C)O)NC(=O)[C@@H]3CSSC[C@H](NC(=O)[C@H](C(C)C)NC(=O)[C@H](CCCNC(=N)N)NC(=O)[C@H](CC(N)=O)NC(=O)[C@@H]4CCCN4C(=O)[C@H](CSSC[C@H](NC(=O)[C@H](C)N)C(=O)N[C@@H](CCCCN)C(=O)NCC(=O)N[C@@H](C(C)C)C(=O)N[C@@H](Cc4ccccc4)C(=O)N[C@@H](CC(=O)O)C(=O)N[C@@H](C)C(=O)N3)NC2=O)C(=O)N[C@@H](CO)C(=O)N[C@@H](CC(=O)O)C(=O)N[C@@H](CCCCN)C(=O)N[C@@H](Cc2c[nH]cn2)C(=O)N[C@@H](CCCCN)C(=O)N[C@@H](Cc2c[nH]c3ccccc23)C(=O)N1)C(N)=O | Nav1.5 (human) | sodium current, inhibitor, two-electrode voltage clamp | Xenopus laevis oocytes | 1 µM, pH 7.4, holding potential -90 mV |  | inhibition | 15.7 ± 2.8% |
| O=c1ccn(C2OC(F)(CO)C(O)C2O)c(=O)[nH]1 (stereo not shown) | Lassa virus | Gaussia luciferase reporter | clade IV | concentration not given, minigenome with NP and L |  | replicon activity | inhibited |
| CC[C@H](C)[C@H](NC(=O)[C@H](Cc1ccccc1)NC(=O)[C@H](CC(=O)O)NC(=O)[C@H](CCCCN)NC(=O)[C@H](C)NC(=O)[C@H](CCCCN)NC(=O)[C@H](CC(N)=O)NC(=O)[C@H](CC(C)C)NC(=O)[C@H](Cc1c[nH]c2ccccc12)NC(=O)[C@H](CCC(=O)O)NC(=O)[C@H](CCCCN)NC(=O)[C@@H](NC(=O)CNC(=O)[C@H](C)N)[C@@H](C)O)C(=O)N[C@@H](CCCCN)C(=O)N[C@@H](CCC(=O)O)C(=O)N[C@@H](CCCCN)C(=O)NCC(=O)N[C@@H](CC(C)C)C(=O)NCC(=O)N[C@@H](CCSC)C(=O)N[C@@H](CC(C)C)C(=O)N[C@@H](CCCNC(=N)N)C(=O)N[C@@H](C)C(=O)N[C@@H](C)C(=O)N[C@@H](C)C(=O)N[C@@H](CC(N)=O)C(=O)N[C@@H](C)C(=O)N[C@@H](C)C(=O)N[C@@H](CC(C)C)C(=O)N[C@@H](CC(N)=O)C(=O)O | Lucilia cuprina |  |  | thorax injection, 24 h |  | LD50 | 16.2 ± 4.8 nmol/g |
| CC(C)C[C@@H]1NC(=O)[C@H](CCCNC(=N)N)NC(=O)[C@@H]2CCCN2C(=O)[C@@H]2CSSC[C@H](NC(=O)CNC(=O)[C@@H]3CCCN3C(=O)[C@H](CCCCN)NC(=O)[C@H](CC(=O)O)NC(=O)[C@@H](NC(=O)CN)C(C)C)C(=O)N[C@@H](CCCNC(=N)N)C(=O)N[C@@H](Cc3ccc(O)cc3)C(=O)N[C@@H](CC(C)C)C(=O)N[C@@H](Cc3ccccc3)C(=O)NCC(=O)NCC(=O)N[C@H]3CSSC[C@H](NC(=O)CNC1=O)C(=O)N[C@@H](CCCCN)C(=O)NCC(=O)N[C@@H](CCCCN)C(=O)NCC(=O)N[C@@H](Cc1c[nH]cn1)C(=O)N[C@@H](CC(=O)O)C(=O)N[C@@H](Cc1ccc(O)cc1)C(=O)N[C@H](C(=O)N[C@@H](C)C(=O)N[C@@H](Cc1c[nH]c4ccccc14)C(=O)N[C@@H](CC(=O)O)C(=O)NCC(=O)N[C@H](C(=O)N[C@@H](Cc1ccccc1)C(=O)N[C@@H](CO)C(=O)N[C@@H](CC(=O)O)C(=O)O)[C@@H](C)O)CSSC[C@H](NC(=O)[C@H](CC(=O)O)NC(=O)[C@H](CC(=O)O)NC(=O)[C@H](CC(=O)O)NC(=O)[C@H](CO)NC(=O)[C@H](CCCCN)NC3=O)C(=O)N2 |  | measured: compound-sensitive delayed rectifier K current | mouse small DRG neurons | 1 µM |  | activation V0.5 | 5.8 ± 2.2 mV |
| Cc1cccc(NC(=O)C[S+]([O-])c2nc(-c3ccccc3)cn2-c2ccc(Cl)cc2)c1C (stereo not shown) | Middle East respiratory syndrome-related coronavirus | viral entry |  |  |  | IC50 | 30200 nM |
| CCC1C=C(C(=O)NC2(C(=O)O)CC2CC)C2CCC(=O)C2C1 (stereo not shown) | COI1/TIFY10A, JAZ1 degron peptide (Arabidopsis thaliana, UniProt O04197+Q9LMA8) | saturation binding |  | COI1-ASK1 with JAZ1 degron peptide |  | Kd | 108 ± 29 nM |
| CC[C@H](C)[C@H](NC(=O)[C@H](Cc1ccccc1)NC(=O)[C@H](CC(=O)O)NC(=O)[C@H](CCCCN)NC(=O)[C@H](C)NC(=O)[C@H](CCCCN)NC(=O)[C@H](CC(N)=O)NC(=O)[C@H](CC(C)C)NC(=O)[C@H](Cc1c[nH]c2ccccc12)NC(=O)[C@H](CCC(=O)O)NC(=O)[C@H](CCCCN)NC(=O)[C@H](Cc1c[nH]c2ccccc12)NC(=O)CNC(=O)[C@H](C)N)C(=O)N[C@@H](CCCCN)C(=O)N[C@@H](CCC(=O)O)C(=O)N[C@@H](CCCCN)C(=O)NCC(=O)N[C@@H](CC(C)C)C(=O)NCC(=O)N[C@@H](CCSC)C(=O)N[C@@H](CC(C)C)C(=O)N[C@@H](CO)C(=O)N[C@@H](C)C(=O)N[C@@H](C)C(=O)N[C@@H](C)C(=O)N[C@@H](CC(N)=O)C(=O)N[C@@H](C)C(=O)N[C@@H](C)C(=O)N[C@@H](CC(C)C)C(=O)N[C@@H](CC(N)=O)C(=O)O | Lucilia cuprina |  |  | thorax injection, 1 h |  | PD50 | 1.1 nmol/g |
| CC(C)C[C@H](NC(=O)[C@H](C)NC(=O)CNC(=O)[C@H](C)NC(=O)CNC(=O)[C@H](Cc1c[nH]cn1)NC(=O)[C@H](CCCCN)NC(=O)[C@H](CC(C)C)NC(=O)[C@H](C)NC(=O)[C@H](CCCCN)NC(=O)[C@H](CCCNC(=N)N)NC(=O)[C@@H](NC(=O)[C@H](CC(C)C)NC(=O)[C@H](CCCCN)NC(=O)[C@H](CCCCN)NC(=O)[C@H](CC(C)C)NC(=O)[C@H](CCCCN)NC(=O)[C@H](CCCCN)NC(=O)[C@H](CCCNC(=N)N)NC(=O)[C@H](Cc1c[nH]c2ccccc12)NC(=O)[C@H](CCCCN)NC(=O)[C@H](CCCNC(=N)N)NC(=O)[C@@H](N)CCCCN)C(C)C)C(=O)N[C@@H](CC(C)C)C(=O)N[C@@H](CO)C(N)=O | Drosophila melanogaster | calcium response, calcium imaging | class III da neurons, ppk1.9-Gal4 UAS-GCaMP6f |  |  | EC50 | 20700 nM |

For quick reference, copied from above:
| SMILES | target or system | test | system | setting | how to read | quantity | result |
| --- | --- | --- | --- | --- | --- | --- | --- |
| CC(C)Oc1ccc(-n2cnc3cc(/C=C\c4ccc(C(C)(C)O)cc4)ccc32)cc1 | Lassa virus |  | HeLa, clade II Nigeria-322 |  |  | EC50 | 50 ± 20 nM |
| [N-]=[N+]=N[C@]1(CO)O[C@@H](n2ccc(N)nc2=O)C(F)(F)[C@@H]1O | Zaire ebolavirus | viral replication | Makona |  |  | EC50 | 600 ± 80 nM |
